# Published values gathered from unrelated publications.
# Chain of UniProt P04062 (whole entry, unmodified, looked up): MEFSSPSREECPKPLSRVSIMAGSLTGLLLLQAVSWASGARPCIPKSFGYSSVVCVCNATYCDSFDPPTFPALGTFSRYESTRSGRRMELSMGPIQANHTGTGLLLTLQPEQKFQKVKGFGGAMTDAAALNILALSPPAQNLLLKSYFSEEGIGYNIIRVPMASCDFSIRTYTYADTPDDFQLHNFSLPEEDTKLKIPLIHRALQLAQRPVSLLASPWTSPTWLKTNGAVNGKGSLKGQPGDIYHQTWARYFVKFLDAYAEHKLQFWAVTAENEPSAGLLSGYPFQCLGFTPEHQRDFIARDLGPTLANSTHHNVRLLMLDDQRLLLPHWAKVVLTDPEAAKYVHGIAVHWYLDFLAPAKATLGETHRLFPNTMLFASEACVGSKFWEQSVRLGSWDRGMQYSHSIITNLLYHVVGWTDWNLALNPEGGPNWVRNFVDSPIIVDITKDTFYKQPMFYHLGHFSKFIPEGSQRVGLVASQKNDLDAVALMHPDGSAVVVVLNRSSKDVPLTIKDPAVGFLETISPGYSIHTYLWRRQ
SMILES,tested on,assay,test system,conditions,scale,endpoint,value
COc1cc(C2C3=C(COC3=O)N(CCO)c3cc4c(cc32)CCC4)cc(OC)c1OC (stereo not drawn),,,"female C57BL/6 mouse, plasma","intraperitoneal, 50 mg/kg",,AUC(0-t),2500 ng·h/mL
N#CCCC1CCN(C(=S)c2ccc(-c3cc(Cl)ccc3Cl)o2)CC1,,,"male BALB/c mouse, plasma","oral, 10 mg/kg",,AUC(0-t),6.39 ng·h/mL
CC(C)NC(=O)NC1CC=C(c2cc3c(Nc4cc5ncsc5cc4F)ncnc3s2)CC1 (racemic),,,"mouse, plasma","oral, 10 mg/kg",,AUC(0-t),11600 ng·h/mL
CCn1cc(-c2cc(Cn3ccnc3)cc3c2CCN([C@H](c2cc(OC)ccn2)C2CC2)C3=O)c(C(F)(F)F)n1,,,"male CD-1 mouse, plasma","oral, 50 mg/kg",,AUC(0-t),20100 ng·h/mL
COC(=O)C1=CNC=C(C(=O)OC)C1c1ccc(F)c(C(F)(F)F)c1,,,"male C57BL/6 mouse, plasma","intravenous, 2 mg/kg",,AUC(0-t),1340 ng·h/mL
CCC(C)n1ncn(-c2ccc(N3CCN(c4ccc(OCC5COC(Cn6cncn6)(c6ccc(Cl)cc6Cl)O5)cc4)CC3)cc2)c1=O (mixture of isomers),Trypanosoma cruzi,"reporter mRNA translation, inhibitor, item: capped polyadenylated Renilla luciferase mRNA",cell-free extract,concentration not given,baseline: control RNA,relative translation,118%
COc1ccccc1/C=C/CNCC(O)COc1ccc(Nc2ccccc2)cc1 (racemic),,,"mouse, plasma","intraperitoneal, 10 mg/kg",,AUC(0-t),1040 ng·h/mL
CC[C@H](C)[C@H](NC(=O)[C@H](Cc1ccccc1)NC(=O)[C@H](CCC(=O)O)NC(=O)[C@H](CCCCN)NC(=O)[C@H](C)NC(=O)[C@H](C)NC(=O)[C@H](CCC(N)=O)NC(=O)CNC(=O)[C@H](CCC(=O)O)NC(=O)[C@H](CC(C)C)NC(=O)[C@H](Cc1ccc(O)cc1)NC(=O)[C@H](CO)NC(=O)[C@H](CO)NC(=O)[C@@H](NC(=O)[C@H](CC(=O)O)NC(=O)[C@H](CO)NC(=O)[C@@H](NC(=O)[C@H](Cc1ccccc1)NC(=O)[C@@H](NC(=O)CNC(=O)[C@H](CCC(=O)O)NC(=O)[C@H](C)NC(=O)[C@@H](N)Cc1c[nH]cn1)[C@@H](C)O)[C@@H](C)O)C(C)C)C(=O)N[C@@H](C)C(=O)N[C@@H](Cc1c[nH]c2ccccc12)C(=O)N[C@@H](CC(C)C)C(=O)N[C@H](C(=O)N[C@@H](CCCNC(=N)N)C(=O)NCC(=O)N[C@@H](CCCNC(=N)N)C(=O)NCC(=O)O)C(C)C,,,"male CD-1 mouse, plasma","intravenous, 1 mg/kg, single dose",,AUC(0-t),129 ng·h/mL
CCC(=O)N1CCC=C(c2cc3c(Nc4cc5ncsc5cc4F)ncnc3s2)C1,,,"mouse, plasma","oral, 10 mg/kg",,AUC(0-t),14900 ng·h/mL
Nc1nnc(-c2ccccc2O)cc1N1CC2CCC(C1)N2c1ccnc(C#CCCN2CCCCCC2)c1,,,"mouse, plasma","oral, 10 mg/kg",,AUC(0-t),3.3 nM·h
CC(=O)N1CCC=C(c2cc3c(Nc4cc5ncsc5cc4F)ncnc3s2)C1,,,"mouse, plasma","intravenous, 10 mg/kg",,AUC(0-t),64800 ng·h/mL
O=C(OC(C(F)(F)F)C(F)(F)F)N1CCC(CNS(=O)(=O)c2ccc(Cl)cc2)CC1,,,"male SCID mouse, brain","oral, 30 mg/kg, single dose",,AUC(0-t),123000 ng·h/mL
O=C(O)c1ccc(/C=C2\SC(=S)N(Cc3cccc(C(F)(F)F)c3)C2=O)cc1,,,"C57BL/6 mouse, blood","intravenous, 5 mg/kg",,AUC(0-t),5720 ng·h/mL
O=C(NCCCCc1ccccc1)n1c(=O)oc2cc(-c3ccc(F)cc3)ccc21,,,"CD-1 mouse, plasma","intravenous, 1 mg/kg",,AUC(0-t),853 ng·h/mL
COc1ccccc1NC(=O)OC1C(C)C(OC)C=COC2(C)Oc3c(C)c(O)c4c(c3C2=O)C2=NC3(CCN(CC(C)C)CC3)NC2=C(NC(=O)C(C)=CC=CC(C)C(O)C(C)C(O)C1C)C4=O (stereo not drawn),,,"female CD-1 mouse, plasma","oral, 10 mg/kg",,AUC(0-t),10200 ng·h/mL
CCCCCCCCOCCCCCN1C[C@H](O)[C@@H](O)[C@H](O)[C@@H]1CO,"GBA1 (Homo sapiens, UniProt P04062, R534H)","inhibitor, 4MU-β-D-glucopyranoside",,added: 4MU-β-D-glucopyranoside,,IC50,15 µM
COc1cnc2cccc(N3CCc4c(cc(Cn5ccnc5)cc4-c4cn(C)nc4C(F)(F)F)C3=O)c2c1,,,"male CD-1 mouse, plasma","intraperitoneal, 50 mg/kg",,AUC(0-t),77500 ng·h/mL
CC(C)(C)c1cnc(CSc2cnc(NC(=O)C3CCN(C(=O)CCCCCCCN4Cc5cc6c(cc5C4)C(=O)N(C4CCC(=O)NC4=O)C6=O)CC3)s2)o1 (stereo not drawn),,,"mouse, plasma","intravenous, 2 mg/kg",,AUC(0-t),116 ng·h/mL
Cc1cc(NC(=O)[C@H](O)c2cc(F)cc(F)c2)ccc1-c1cnc(N)c(C(=O)NC(C)C)c1,,,"female nude mouse, plasma","oral, 30 mg/kg, single dose",,AUC(0-t),15600 ng·h/mL
COC1C=COC2(C)Oc3c(C)c(O)c4c(c3C2=O)C2=NC3(CCN(CC(C)C)CC3)NC2=C(NC(=O)C(C)=CC=CC(C)C(O)C(C)C(O)C(C)C(OC(=O)Nc2cnccn2)C1C)C4=O (stereo not drawn),,,"female CD-1 mouse, plasma","oral, 10 mg/kg",,AUC(0-t),55100 ng·h/mL
CCC(=O)NC1CC=C(c2cc3c(Nc4cc5ncsc5cc4F)ncnc3s2)CC1 (racemic),,,"mouse, plasma","oral, 10 mg/kg",,AUC(0-t),27300 ng·h/mL
C[C@@H](Nc1nc2c(cnn2C(C)(C)C)c(=O)n1Cc1cccc(F)c1)c1ccc(Cl)cc1,,,"C57BL/6 mouse, plasma","oral, 5 mg/kg",,AUC(0-t),1660 ng·h/mL
Cc1cc(NCC(=O)C(C)C)c2nc(N3CCOC[C@H]3C)cc(=O)n2c1,,,"C57BL/6 mouse, plasma","intraperitoneal, 10 mg/kg, single dose",,AUC(0-t),3030 ng·h/mL
Cc1ncsc1-c1ccc(CNC(=O)[C@@H]2C[C@@H](O)CN2C(=O)[C@@H](NC(=O)COCC(C)(COCCOCCOCCNC(=O)C[C@@H]2N=C(c3ccc(Cl)cc3)c3c(sc(C)c3C)-n3c(C)nnc32)COCCOCCOCCNC(=O)C[C@@H]2N=C(c3ccc(Cl)cc3)c3c(sc(C)c3C)-n3c(C)nnc32)C(C)(C)C)cc1,,,"male C57BL/6 mouse, plasma","subcutaneous, 5 mg/kg, single dose",,AUC(0-t),23200 ng·h/mL
Cn1c2cc([S+](C)[O-])sc2c2cnn(Cc3cccc(N)c3)c(=O)c21 (stereo not drawn),,,"male BALB/c mouse, plasma","intravenous, 1 mg/kg, single dose",,AUC(0-t),958 ng·h/mL
COc1ccc(C(=O)c2c(C(=O)NCCCN(C)C)oc3ccc(Cl)cc3c2=O)cc1OC,,,"male C57BL/6 mouse, liver","intravenous, 1 mg/kg",,AUC(0-t),52100 ng·h/mL
CCOC(=O)c1nc2cc(Cl)c(Cl)cc2nc1N1CCN(C(=O)Nc2ccc(N3CCNCC3)cc2)CC1,,,"male mouse, plasma","intravenous, 3 mg/kg",,AUC(0-t),676 ng·h/mL
CC[C@H](C)[C@@H]1NC(=O)[C@@](C)(NC(=O)[C@H](CCCNC(=N)N)NC(=O)[C@H](CC(C)C)NC(=O)[C@]2(C)CCCC=CCCC[C@](C)(NC(C)=O)C(=O)N[C@@H](CC(C)C)C(=O)N[C@@H](CCC(N)=O)C(=O)N2)CCCC=CCCC[C@@](C)(C(=O)N[C@@H](CC(C)C)C(=O)N[C@@H](Cc2ccc3ccccc3c2)C(=O)NCCC(=O)NCCC(N)=O)NC(=O)[C@H](CCCNC(=N)N)NC(=O)[C@H](CCC(N)=O)NC1=O,,,"male BALB/c mouse, plasma","intraperitoneal, 30 mg/kg",,AUC(0-t),987000 ng·h/mL
O=C(C1CC1)N1CCC=C(c2cc3c(Nc4cc5ncsc5cc4F)ncnc3s2)C1,,,"mouse, plasma","intravenous, 10 mg/kg",,AUC(0-t),16200 ng·h/mL
COC1C=COC2(C)Oc3c(C)c(O)c4c(c3C2=O)C2=NC3(CCN(CC(C)C)CC3)NC2=C(NC(=O)C(C)=CC=CC(C)C(O)C(C)C(O)C(C)C(OC(=O)c2cccnc2)C1C)C4=O (stereo not drawn),,,"female CD-1 mouse, plasma","oral, 10 mg/kg",,AUC(0-t),43900 ng·h/mL

# Some of these lines once more:
SMILES,tested on,assay,test system,conditions,scale,endpoint,value
Nc1nnc(-c2ccccc2O)cc1N1CC2CCC(C1)N2c1ccnc(C#CCCN2CCCCCC2)c1,,,"mouse, plasma","oral, 10 mg/kg",,AUC(0-t),3.3 nM·h
Cc1ncsc1-c1ccc(CNC(=O)[C@@H]2C[C@@H](O)CN2C(=O)[C@@H](NC(=O)COCC(C)(COCCOCCOCCNC(=O)C[C@@H]2N=C(c3ccc(Cl)cc3)c3c(sc(C)c3C)-n3c(C)nnc32)COCCOCCOCCNC(=O)C[C@@H]2N=C(c3ccc(Cl)cc3)c3c(sc(C)c3C)-n3c(C)nnc32)C(C)(C)C)cc1,,,"male C57BL/6 mouse, plasma","subcutaneous, 5 mg/kg, single dose",,AUC(0-t),23200 ng·h/mL
Cc1cc(NCC(=O)C(C)C)c2nc(N3CCOC[C@H]3C)cc(=O)n2c1,,,"C57BL/6 mouse, plasma","intraperitoneal, 10 mg/kg, single dose",,AUC(0-t),3030 ng·h/mL
CCC(=O)NC1CC=C(c2cc3c(Nc4cc5ncsc5cc4F)ncnc3s2)CC1 (racemic),,,"mouse, plasma","oral, 10 mg/kg",,AUC(0-t),27300 ng·h/mL
N#CCCC1CCN(C(=S)c2ccc(-c3cc(Cl)ccc3Cl)o2)CC1,,,"male BALB/c mouse, plasma","oral, 10 mg/kg",,AUC(0-t),6.39 ng·h/mL
